Literature values that unrelated publications cite.
Each numbered part shows a few of the values that one paper quotes. ± gives the spread as reported.

Series 1 — organism: SARS-CoV-2; effect on: cytopathic effect; cell line: Caco-2; concentration: 10 µM
| SMILES | inhibition [%] |
| --- | --- |
| CCCC[C@@H](C=O)NC(=O)[C@H](CC(C)C)NC(=O)OCc1ccccc1 | 9.5 |
| c1cnc2c([O][Ga]([O]c3cccc4cccnc34)[O]c3cccc4cccnc34)cccc2c1 | 0.0366 |
| CCC(=O)OCN1C(=O)C=CC1=O | -3 |
| Nc1nc(-c2ccc(Cl)c(Cl)c2)c(-c2ccncc2)s1 | 2.6 |
| C=CC(=O)c1ccc2ccccc2c1 | 7.1 |
| O=c1[nH]nc(Sc2ncc([N+](=O)[O-])s2)n1-c1ccc2c(c1)OCCO2 | -6.4 |
| COc1cc(C[C@@H]2NCCc3cc(O)c(O)cc32)cc(OC)c1OC | -3.2 |
| S=C(S)N1CCCC1 | -4.8 |
| CCOC(=S)SSC(=S)OCC | 4.9 |
| Oc1cc2c(cc1O)C(c1ccccc1)CNCC2 (stereo not drawn) | 0.272 |
| COc1cccc2c1C(=O)c1c(O)c3c(c(O)c1C2=O)C[C@@](O)(/C(CO)=N/NC(=O)CCCCCN1C(=O)C=CC1=O)C[C@@H]3O[C@H]1C[C@H](N)[C@H](O)[C@H](C)O1 | 1.6 |
| Cc1ccc(S(=O)(=O)c2ccc([N+](=O)[O-])o2)cc1 | -0.4 |
| O=[N+]([O-])C=Cc1ccc2c(c1)OCO2 | -5.4 |
| O=c1sn(-c2cccc3ccccc23)c(=O)n1Cc1ccccc1 | -2.1 |
| Nc1nc2c(ncn2[C@@H]2O[C@H](CO)[C@@H](O)[C@H]2O)c(=S)[nH]1 | 111 |

Series 2 — organism: SARS-CoV-2; effect on: viral cytopathic effect; cell line: Vero E6; concentration: 20 µM
| Compound | inhibition |
| --- | --- |
| N#C/C(=C\c1ccc(O)c(O)c1)C(=O)OCCc1cccs1 | 0.02% |
| CC(C)c1ccccc1Cc1cc(C(=O)Nc2ccc(S(=O)(=O)c3ccccc3C(C)(C)C)cc2)c(O)c(O)c1O | 10.3% |
| CC1=NN(c2ccc(C)c(C)c2)C(=O)/C1=N\Nc1cccc(-c2cccc(C(=O)O)c2)c1O | 6.62% |

Mixed results
| SMILES | tested on | test | test system | setting | measurement | value |
| --- | --- | --- | --- | --- | --- | --- |
| Oc1ccc([C@H]2Oc3cc(O)cc([C@@H]4[C@H](c5cc(O)cc(O)c5)[C@@H](c5ccc(O)cc5)O[C@H]4c4ccc(O)cc4)c3[C@@H]2c2cc(O)c3c(c2)[C@@H](c2cc(O)cc(O)c2)[C@H](c2ccc(O)cc2)O3)cc1 | SARS-CoV-2 | viral replication |  |  | EC50 | 71.6 µM |
| O=C(c1cc(=O)[nH]c2ccccc12)N1CCN(c2ccc(Cl)c(Cl)c2)CC1CN1CCOCC1 (stereo not drawn) | SARS-CoV-2 | antiviral activity |  |  | EC50 | 0.82 µM |
| Cn1cnc(Cn2c(=O)[nH]/c(=N\c3cc4cn(C)nc4cc3Cl)n(Cc3cc(F)c(F)cc3F)c2=O)n1 | SARS-CoV-2 |  | human | concentration not given, phase II/III clinical trial | viral shedding time | decreased |
| CC(C)(C)[C@H](NC(=O)C(F)(F)F)C(=O)N1C[C@H]2[C@@H]([C@H]1C(=O)N[C@H](C#N)C[C@@H]1CCNC1=O)C2(C)C | SARS-CoV-2 | viral replication | Caco-2 |  | EC90 | 0.3 ± 0.06 µM |
| COc1ccc([C@H]2c3[nH]c4ccc(Cl)cc4c3CCN2C(=O)Oc2ccc(Cl)cc2)cc1 | SARS-CoV-2 | viral replication, measured: viral titre |  | cell culture | EC90 | 0.053 µM |
| Cn1c(Cn2ccc(C(F)(F)F)c(Oc3cc(Cl)cc(C#N)c3)c2=O)n[nH]c1=O | HIV-1 | viral replication | MT-4, E138K mutant |  | EC50 | 0.0374 ± 0.0152 µM |
| C[C@H](NC(=O)[C@@H](c1cccnc1)N(C(=O)c1ccco1)c1ccc(-c2ccccc2)cc1)c1ccccc1 | human calpain 1 | enzyme activity, inhibitor |  |  | IC50 | 6 µM |
| O=NO | copper-containing nitrite reductase (Ralstonia pickettii, UniProt B2UHR8) | substrate |  |  | Km | 26 µM |
| Nc1nc2nc[nH]c2c(=S)[nH]1 | Replicase polyprotein 1ab, papain-like protease (rep, Severe acute respiratory syndrome coronavirus 2, UniProt P0DTD1) | enzyme activity |  | DTT in buffer | IC50 | > 60 µM |
| CC(C)(C)[C@H](NC(=O)C(F)(F)F)C(=O)N1C[C@H]2[C@@H]([C@H]1C(=O)N[C@H](C#N)C[C@@H]1CCNC1=O)C2(C)C | SARS-CoV-2 |  | Vero | concentration not given | viral cytopathic effect | inhibited |
| Cc1cnc(C(=O)N[C@H]2CCCCC/C=C\[C@@H]3C[C@@]3(C(=O)NS(=O)(=O)C3CC3)NC(=O)[C@@H]3C[C@@H](Oc4nc5ccccc5c5ccccc45)CN3C2=O)cn1 | SARS-CoV-2 | viral replication | Vero E6 |  | IC50 | 6 µM |
| Nc1ncnc2c1ncn2[C@@H]1O[C@H](COP(=O)(O)OP(=O)(O)OP(=O)(O)O)[C@@H](O)[C@H]1O | Replicase polyprotein 1ab, nsp12 with nsp7/nsp8 (rep, Severe acute respiratory syndrome coronavirus 2, UniProt P0DTD1) | substrate |  | templating base U | kcat | 240 ± 30 s⁻¹ |
